Experimental data from different studies.
Parts stem from different laboratories: compare values within a part only. Substitutions count along the parent as printed.

Series 1
Target: Interferon regulatory factor 5, full length, phosphomimetic (IRF5, Homo sapiens, UniProt Q13568-2, residues 1-514, K96S/S451D/S453D/S456D/S462D)
Method: protein-binding microarray
Form: double-stranded DNA, one strand shown
Matrix: in vitro
Tested at: 250 nM
Notes: 60-bp whole probe
Added: salmon DNA 0.4 mg/ml
Baseline: random background probes
Direction: higher = stronger binding
Endpoint: log fluorescence
Constant ends, left off below: GCCTAGCAC … GTCTTGATTCGCTTGACGCTGCTG
GAGGTTTTCTAATGTTTTTTAGTGCTA: 0.692 z-score
GACGGACTGGGGTACCGGGACGTGCTA: -0.599 z-score
CAACCAATCATTTTTGCTTAGTGCTAG: 0.443 z-score
GACAGACTGGACTTTCGGGACGTGCTA: 4.75 z-score
TTAGATATCGGGTAACGATTAGTGCTA: 2.6 z-score
AGACCTTGCTTTATGTGTAGGTGCTAG: -0.108 z-score
TTAGGTATCCTCCTCCTTTAGTGCTAG: -0.0134 z-score
GACGGTATCCTACTGCTCACGTGCTAG: 0.0205 z-score
GACCGACTGCTTATCCTGACGTGCTAG: -0.15 z-score
TTGGGTTTCGGACTGGGTTAGTGCTAG: 4.14 z-score
GACGATTTCAGTATCGTGACGTGCTAG: 2.09 z-score
GTGTGTCTGATTATTTACATGTGCTAG: 0.221 z-score
TTAGATTTCAGACTGGTTTAGTGCTAG: 0.479 z-score
GACGGTTTCGGTACTGGGGACGTGCTA: 8.8 z-score
TTAGATATCGGGTCTCGATTAGTGCTA: 1.87 z-score
GACTGTCTCCTACTGCTGACGTGCTAG: -0.0103 z-score

Series 2
Target: BIRC6 UBC core domain (UniProt Q9NR09)
Method: yeast two-hybrid
Matrix: yeast
Notes: mostly zero background
Baseline: not given
Direction: higher = stronger interaction
Endpoint: lacZ reporter activity
B1: TRIML1 RING domain (UniProt Q8N9V2); chain LMENLREELTCFICLDYFSSPVTTECGHSFCLVCLLRSWEEHNTPLSCPECWRTLEGPHFQS
B2: RNF111 RING domain (UniProt Q6ZNA4); chain EGTEEDTEEKCTICLSILEEGEDVRRLPCMHLFHQVCVDQWLITNKKCPICRVDIEAQLPSE
B3: TRIM40 RING domain (UniProt Q6P9F5); chain LQKDNQEEGVCPICQESLKEAVSTNCGHLFCRVCLTQHVEKASASGVFCCPLCRKPCSEEVLG
B4: TRIM5 RING domain (UniProt Q9C035); chain LREVKLSPEGQKVDHCARHGEKLLLFCQEDGKVICWLCERSQEHRGHHTFLTEEVAREYQVKL
B5: TRIM4 RING domain (UniProt Q9C037); chain EAEDIQEELTCPICLDYFQDPVSIECGHNFCRGCLHRNWAPGGGPFPCPECRHPSAPAALRP
Target sequence (chain): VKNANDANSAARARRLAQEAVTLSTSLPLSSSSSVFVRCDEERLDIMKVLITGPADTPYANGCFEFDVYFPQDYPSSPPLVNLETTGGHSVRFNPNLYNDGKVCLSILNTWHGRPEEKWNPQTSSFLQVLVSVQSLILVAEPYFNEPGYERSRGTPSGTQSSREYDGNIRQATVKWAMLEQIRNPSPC
PAELEVQASECVVCLEREAQMIFLNCGHVCCCQQCCQPLRTCPLCRQDIAQRLRIY (LRSAM1 RING domain (UniProt Q6UWE0)): 0
B1 (TRIML1 RING domain): 0
B2 (RNF111 RING domain): 0
B3 (TRIM40 RING domain): 0
B4 (TRIM5 RING domain): 0
MPIRALCTICSDFFDHSRDVAAIHCGHTFHLQCLIQWFETAPSRTCPQCRIQVGKRTIIN (TRAIP RING domain (UniProt Q9BWF2)): 0
QVDKAVFHMQSVKCLKCQEQKRAVLPCQHAALCELCAEGSECPICQPGRAHTLQS (UNK RING domain (UniProt Q9C0B0)): 0
B5 (TRIM4 RING domain): 0

Series 3
Target: RNA binding protein fox-1 homolog 2, RRM domain, GST-SBP tag (RBFOX2, Homo sapiens, UniProt O43251-10, residues 100-194)
Method: RNA Bind-n-Seq
Form: RNA
Matrix: in vitro
Tested at: 365 nM
Notes: natural RNA segment, single round, ends assumed
Baseline: no-protein control
Direction: higher = stronger binding
Endpoint: RBNS enrichment (R)
Constant ends, left off below: GGGAGUUCUACAGUCCGACGAUC … UGGAAUUCUCGGGUGCCAA
Residues (chain): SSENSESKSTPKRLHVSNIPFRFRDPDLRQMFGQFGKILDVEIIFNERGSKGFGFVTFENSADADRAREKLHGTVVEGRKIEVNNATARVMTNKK
AAUUCACAUUCCUUAUUCUGAGAAUUUGGCCCCAGCUGUUUGCCUUUGACUCCCUGACCUCCAGAGCCAGGGUUGUGCCUUAUUGUCCCAUCUGUGGGCCUCAUUCUGCC: 0.421
CCAAGGAUAACUGUAUGCUAUCCUUUCCCUAUCGGUCCCACUGUGCUGUGUUCAGCACAUUUUAGGUAACAGGACACAACUUGAAACUUUUCAGGAGAGCCUAUUGCCCU: 0.26
GCCAGUGACUGAGGAUCCCCUCCAGUCAUGGUUCUGUAUAUUCUUUGAGACAGGUGUUUUCAUCUUCUCUCAGCUCAGUGCUGUUUUGUACAGUCUCUGUGGCUUGGUUG: 0.329
AUUUUGGCUUUGACUCUGCCAUUUCUGAAAUGUGGGGGAGGAUGGAGGCAGCUGACCUCUCCAGUUGCUGUGUUGUAUUCCUACCCAAUUUCCUGGGCAGUUGAUGCAUC: 1.05
GUAAGCCAUAAUGCUCCCAAAGUGCCUUGUUUUCUCUGAUACAAACAUAUUUAUAAGGACAUAUUCCUGUGGGUUCUUGGGUGUGUUUGCCACAUCAAGAUUUUAGGGAA: 0.653
GCUACUGUUAUAAAUCAUAAUGUAAAUCUCUGUGUUUUCUGGUAGUUUUAGGUAACCCCUGUGAGAGGGUCGUUCCAUACUCCACCCCCCAGGGGUCACAACCUACAGGU: 0.258
CAUCAUGUUGGGCUCCUAGAUUGUACUGGGGUUGCCCAUAAAUCAAACCCCAUACUCUUAGAAUUCAUUAUAUUAUGGUGAUAUCCGAACCUAGUGAAUGGUAUGCUUGG: 0.439
UUAUCAUUGCUUAACUUCAUCUUAAUGAAAUGAAACUUUGUAACUUAUUGUAGUUAGAAAUUGUAACUUUGAUAUCGAAUCUCUUGCCUUCAACAAGCACACUGACAGAG: 0.255
AGUUCUAUCAGUAUUUAUGUUGAAAUUUCUAACAUGGAUUCUAGUCUCUAUUCUGUUAAUUUAAUUUUAAAUGCUUUAUCCAUUUGUGCAAAGGUAAACACAGAUUGUAU: 0.942
UGGUUGGAUUAGGCACCCUUCAUGCCUGCUACCAGGAACUCUCAGAUCUGCUUGCCCCAAACAAAUGGUGUAAGCUGAGGGAAACUCCAACCCCACACUUGAUGCUCUGU: 1.93
AUCUUGAAGUUACACAUAACUUCUUACUAGCCAGUAUGGCAAAAGUAGGCAUCUAAAGAAUAUAAAGCCUCAAAUCUUCCUUACUGUCUCUCUUGUCACAUGGAAUCUAC: 0.324
GCUCACAUGCACCUCACUAGGGUUUGUGACCAGGGUCUGGAUGAGCUUGAAUUUGAAUGAAUUGAGUUUGUAUUUCUAGAACCCUGGGUUUUUACAUGUUUGGUCUUUUU: 2.02

Series 4
Target: CCND3, cyclin fold, Cln2 fusion (human)
Method: yeast growth competition, sequencing
Matrix: yeast
Notes: weak parent motif
Baseline: not given
Direction: higher = stronger binding
Endpoint: normalised enrichment score
Starting sequence: CDC6 docking peptide (human); TLKGRRLVFDNQL
L13I: 0.115
D10F: 0.0757
G4C: 0.213
R6V: 0.224
K3I: 0.196
D10G: 0.0885
V8L: 0.186
L13D: 0.093
L7R: 0.169
G4K: 0.0601
D10E: -0.0464
Q12F: 0.041
L7N: 0.126
R6N: 0.113
T1E: 0.0998
N11A: 0.206

Series 5
Target: Histone acetyltransferase KAT6A, winged helix 1, GST fusion (KAT6A, Homo sapiens, UniProt Q92794, residues 1-85)
Method: protein binding microarray
Form: double-stranded DNA, one strand shown
Matrix: in vitro
Tested at: not given
Notes: 8-mer, flanks averaged, mean of 2 arrays, mostly near background
Baseline: not given
Direction: higher = stronger binding
Endpoint: E-score
Construct (chain): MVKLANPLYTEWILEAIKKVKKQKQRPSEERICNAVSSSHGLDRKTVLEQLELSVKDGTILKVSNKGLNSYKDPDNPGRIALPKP
ACTGTTTA: -0.0666
ATCTACGC: 0.239
ACTGGGAT: -0.23
AGTTAGCA: -0.136
ATCTCGCA: -0.191
CCACTTAA: -0.202
ATCCATGC: -0.111
CCGCCACC: 0.243
GAAGATTC: -0.0258
GCAAAAGC: 0.132
AGTTCCTA: -0.125
GCTGTTAA: 0.0416
GTCGTTCA: -0.072
TCCTACCA: -0.102
GTTTCATA: 0.0196
CCATATTA: -0.16
ATTTACTC: 0.0104
AGCGGCCC: 0.324
GCCGTTTA: 0.274
AAGTCAGC: -0.109
ATTCTAGC: -0.235
GGGGTTTA: -0.0507
CCTCAACG: -0.195
CCTCGTCC: -0.189
CTAGCCCA: -0.162

For quick reference, copied from above (series 5):
ATTCTAGC: -0.235
GTTTCATA: 0.0196
ACTGGGAT: -0.23
ATCTCGCA: -0.191
ATCTACGC: 0.239
